# Assay results from different studies.
# A part holds a random share of what one study measured. “And” joins repeats or separate records; there may be more than shown.
# Chain of UniProt Q14004 (whole entry, looked up): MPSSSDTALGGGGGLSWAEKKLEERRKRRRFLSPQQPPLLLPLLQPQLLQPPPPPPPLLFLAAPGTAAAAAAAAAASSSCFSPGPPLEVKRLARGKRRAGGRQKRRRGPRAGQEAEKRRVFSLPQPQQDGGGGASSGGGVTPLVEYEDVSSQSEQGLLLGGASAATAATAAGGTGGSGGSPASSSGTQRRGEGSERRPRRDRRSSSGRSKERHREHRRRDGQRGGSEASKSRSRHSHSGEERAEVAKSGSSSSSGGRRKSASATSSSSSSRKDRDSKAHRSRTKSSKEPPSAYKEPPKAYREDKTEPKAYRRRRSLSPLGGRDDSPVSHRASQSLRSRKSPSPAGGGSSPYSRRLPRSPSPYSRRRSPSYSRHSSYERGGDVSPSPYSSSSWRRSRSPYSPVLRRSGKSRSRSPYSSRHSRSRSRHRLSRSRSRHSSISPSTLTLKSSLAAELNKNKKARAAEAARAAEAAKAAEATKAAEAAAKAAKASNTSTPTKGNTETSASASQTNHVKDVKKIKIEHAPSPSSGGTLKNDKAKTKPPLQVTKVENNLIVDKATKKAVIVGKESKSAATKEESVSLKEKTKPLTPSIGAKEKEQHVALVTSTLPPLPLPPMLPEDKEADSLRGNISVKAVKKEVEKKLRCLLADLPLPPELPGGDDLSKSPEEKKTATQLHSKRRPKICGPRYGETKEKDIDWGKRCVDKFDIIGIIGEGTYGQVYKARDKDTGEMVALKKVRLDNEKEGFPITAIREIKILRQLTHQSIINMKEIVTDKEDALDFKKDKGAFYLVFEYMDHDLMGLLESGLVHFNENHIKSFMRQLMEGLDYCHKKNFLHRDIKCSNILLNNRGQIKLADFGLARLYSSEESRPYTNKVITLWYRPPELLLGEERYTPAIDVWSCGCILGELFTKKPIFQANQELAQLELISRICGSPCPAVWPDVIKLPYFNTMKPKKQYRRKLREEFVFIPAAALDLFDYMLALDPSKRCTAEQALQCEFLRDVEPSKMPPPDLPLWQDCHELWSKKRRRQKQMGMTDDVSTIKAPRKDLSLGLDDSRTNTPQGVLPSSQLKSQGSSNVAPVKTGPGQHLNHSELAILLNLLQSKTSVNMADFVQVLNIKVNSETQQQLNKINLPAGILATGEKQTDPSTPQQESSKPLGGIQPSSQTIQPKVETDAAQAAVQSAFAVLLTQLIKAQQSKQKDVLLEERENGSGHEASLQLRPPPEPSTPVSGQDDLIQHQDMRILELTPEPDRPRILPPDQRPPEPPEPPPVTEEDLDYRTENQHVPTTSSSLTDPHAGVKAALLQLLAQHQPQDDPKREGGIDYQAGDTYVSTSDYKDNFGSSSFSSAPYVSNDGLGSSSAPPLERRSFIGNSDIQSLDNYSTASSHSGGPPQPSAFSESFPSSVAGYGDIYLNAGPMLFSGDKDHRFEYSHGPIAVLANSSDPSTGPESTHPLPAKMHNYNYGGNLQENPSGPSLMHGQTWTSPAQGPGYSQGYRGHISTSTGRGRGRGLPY
# Chain of UniProt O14730 (whole entry, looked up): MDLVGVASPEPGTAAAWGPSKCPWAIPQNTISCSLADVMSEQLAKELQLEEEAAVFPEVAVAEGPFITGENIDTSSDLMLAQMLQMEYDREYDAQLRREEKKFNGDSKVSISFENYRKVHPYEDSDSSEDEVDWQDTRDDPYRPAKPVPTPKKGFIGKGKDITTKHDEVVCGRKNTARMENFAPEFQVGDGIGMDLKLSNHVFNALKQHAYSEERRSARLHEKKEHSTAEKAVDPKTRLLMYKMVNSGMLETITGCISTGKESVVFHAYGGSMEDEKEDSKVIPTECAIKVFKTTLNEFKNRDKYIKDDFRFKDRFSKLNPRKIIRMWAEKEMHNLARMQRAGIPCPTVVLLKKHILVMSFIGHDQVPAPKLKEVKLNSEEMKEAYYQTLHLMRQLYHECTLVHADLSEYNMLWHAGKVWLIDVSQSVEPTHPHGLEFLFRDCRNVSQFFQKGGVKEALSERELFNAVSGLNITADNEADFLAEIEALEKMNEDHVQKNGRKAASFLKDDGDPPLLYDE
# Chain of UniProt Q9UQM7 (whole entry, looked up): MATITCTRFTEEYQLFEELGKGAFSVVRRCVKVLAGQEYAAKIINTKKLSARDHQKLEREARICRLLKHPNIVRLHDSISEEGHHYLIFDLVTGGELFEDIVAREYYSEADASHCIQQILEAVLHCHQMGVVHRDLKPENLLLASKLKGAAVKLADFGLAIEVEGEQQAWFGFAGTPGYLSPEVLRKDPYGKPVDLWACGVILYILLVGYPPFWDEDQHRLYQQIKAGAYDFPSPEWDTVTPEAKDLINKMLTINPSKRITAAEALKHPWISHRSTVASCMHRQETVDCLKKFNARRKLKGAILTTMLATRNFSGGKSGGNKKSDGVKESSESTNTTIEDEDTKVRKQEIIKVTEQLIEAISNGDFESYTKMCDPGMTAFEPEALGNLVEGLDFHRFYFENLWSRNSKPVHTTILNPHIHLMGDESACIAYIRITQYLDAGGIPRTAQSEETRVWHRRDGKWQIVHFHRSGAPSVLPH

# Series 1 — cell line: A-375; tested at: 100 µM; time: 36 h
SMILES,viability
COCCOC(=O)C1=C(C)NC(C)=C(C(=O)OC/C=C/c2ccccc2)C1c1cccc([N+](=O)[O-])c1 (stereo not drawn),22.1%
C#C[C@]1(O)CC[C@H]2[C@@H]3CCc4cc(OC)ccc4[C@H]3CC[C@@]21C,9.29%
CN(C(=O)CN(CCO)CC(=O)N(C)C(C)(C)Cc1ccccc1)C(C)(C)Cc1ccccc1,-1.68%
CC1=C(/C=C/C(C)=C/C=C/C(C)=C/C=C/C=C(C)/C=C/C=C(C)/C=C/C2=C(C)C(=O)[C@@H](O)CC2(C)C)C(C)(C)C[C@H](O)C1=O,106%
C/C(=C(\CCOP(=O)(O)O)SC(=O)c1ccccc1)N(C=O)Cc1cnc(C)nc1N,92.6%
CC(C)(C)NCC(O)COc1cccc2c1CCC(=O)N2 (stereo not drawn),97.2%
CCOC(=O)[N-]c1cn(N2CCOCC2)n[o+]1,81.4%
Nc1cccc2c1CN(C1CCC(=O)NC1=O)C2=O (stereo not drawn),105%

# Series 2 — mode: inhibitor; tested at: 1 µM
# SMILES: CO[C@@H]1[C@H](N(C)C(=O)c2ccccc2)C[C@H]2O[C@]1(C)n1c3ccccc3c3c4c(c5c6ccccc6n2c5c31)C(=O)NC4
target,observed,inhibition [%]
"PLK4 (Homo sapiens, UniProt O00444)",enzyme activity,96
"COQ8A (Homo sapiens, UniProt Q8NI60)",enzyme activity,0
"MET (Homo sapiens, UniProt P08581, M1250T)",enzyme activity,31
"CDK13 (Homo sapiens, UniProt Q14004)",enzyme activity,16
"Tyrosine-protein kinase JAK1, JH2 pseudokinase domain (JAK1, Homo sapiens, UniProt P23458)",,73

# Series 3 — method: competition with immobilised ligand; tested at: 1 µM
# SMILES: CCC(=O)N[C@@H]1CC[C@H](C(=O)N(C)c2ccc(-c3nc4ccccc4o3)cc2)C1
target,observed,remaining binding
"Tyrosine-protein kinase ABL1, phosphorylated (ABL1, Homo sapiens, UniProt P00519, Q252H)",cell-free assay,87%
"MAPKAPK2 (Homo sapiens, UniProt P49137)",cell-free assay,87%
"GRK2 (Homo sapiens, UniProt P25098)",cell-free assay,100%
"BUB1 (Homo sapiens, UniProt O43683)",cell-free assay,89%
"RIOK3 (Homo sapiens, UniProt O14730)",cell-free assay,100%
"Tyrosine-protein kinase ABL1, phosphorylated (ABL1, Homo sapiens, UniProt P00519, E255K)",binding,100%
"PIM3 (Homo sapiens, UniProt Q86V86)",cell-free assay,96%
"STK24 (Homo sapiens, UniProt Q9Y6E0)",cell-free assay,100%
"FGFR3 (Homo sapiens, UniProt P22607, G697C)",cell-free assay,88%
"CDK4 (Homo sapiens, UniProt P11802)",cell-free assay,97%
"PRKX (Homo sapiens, UniProt P51817)",cell-free assay,100%
"FLT3 (Homo sapiens, UniProt P36888, D835H)",cell-free assay,100%
"CDC42BPB (Homo sapiens, UniProt Q9Y5S2)",cell-free assay,100%
"CAMK1D (Homo sapiens, UniProt Q8IU85)",cell-free assay,100%
"FLT3 (Homo sapiens, UniProt P36888, R834Q)",cell-free assay,100%
"CDK13 (Homo sapiens, UniProt Q14004)",cell-free assay,100%
"GRK3 (Homo sapiens, UniProt P35626)",cell-free assay,100%
"CAMK2A (Homo sapiens, UniProt Q9UQM7)",cell-free assay,100%
"MARK4 (Homo sapiens, UniProt Q96L34)",cell-free assay,82%
"RET (Homo sapiens, UniProt P07949)",cell-free assay,93%

# Series 4 — observed: enzyme activity; mode: inhibitor; tested at: 77 µM; baseline: untreated
# Target: DNA polymerase theta, ATPase domain (POLQ, Homo sapiens, UniProt O75417)
# Chain of UniProt O75417 (whole entry, unmodified, looked up): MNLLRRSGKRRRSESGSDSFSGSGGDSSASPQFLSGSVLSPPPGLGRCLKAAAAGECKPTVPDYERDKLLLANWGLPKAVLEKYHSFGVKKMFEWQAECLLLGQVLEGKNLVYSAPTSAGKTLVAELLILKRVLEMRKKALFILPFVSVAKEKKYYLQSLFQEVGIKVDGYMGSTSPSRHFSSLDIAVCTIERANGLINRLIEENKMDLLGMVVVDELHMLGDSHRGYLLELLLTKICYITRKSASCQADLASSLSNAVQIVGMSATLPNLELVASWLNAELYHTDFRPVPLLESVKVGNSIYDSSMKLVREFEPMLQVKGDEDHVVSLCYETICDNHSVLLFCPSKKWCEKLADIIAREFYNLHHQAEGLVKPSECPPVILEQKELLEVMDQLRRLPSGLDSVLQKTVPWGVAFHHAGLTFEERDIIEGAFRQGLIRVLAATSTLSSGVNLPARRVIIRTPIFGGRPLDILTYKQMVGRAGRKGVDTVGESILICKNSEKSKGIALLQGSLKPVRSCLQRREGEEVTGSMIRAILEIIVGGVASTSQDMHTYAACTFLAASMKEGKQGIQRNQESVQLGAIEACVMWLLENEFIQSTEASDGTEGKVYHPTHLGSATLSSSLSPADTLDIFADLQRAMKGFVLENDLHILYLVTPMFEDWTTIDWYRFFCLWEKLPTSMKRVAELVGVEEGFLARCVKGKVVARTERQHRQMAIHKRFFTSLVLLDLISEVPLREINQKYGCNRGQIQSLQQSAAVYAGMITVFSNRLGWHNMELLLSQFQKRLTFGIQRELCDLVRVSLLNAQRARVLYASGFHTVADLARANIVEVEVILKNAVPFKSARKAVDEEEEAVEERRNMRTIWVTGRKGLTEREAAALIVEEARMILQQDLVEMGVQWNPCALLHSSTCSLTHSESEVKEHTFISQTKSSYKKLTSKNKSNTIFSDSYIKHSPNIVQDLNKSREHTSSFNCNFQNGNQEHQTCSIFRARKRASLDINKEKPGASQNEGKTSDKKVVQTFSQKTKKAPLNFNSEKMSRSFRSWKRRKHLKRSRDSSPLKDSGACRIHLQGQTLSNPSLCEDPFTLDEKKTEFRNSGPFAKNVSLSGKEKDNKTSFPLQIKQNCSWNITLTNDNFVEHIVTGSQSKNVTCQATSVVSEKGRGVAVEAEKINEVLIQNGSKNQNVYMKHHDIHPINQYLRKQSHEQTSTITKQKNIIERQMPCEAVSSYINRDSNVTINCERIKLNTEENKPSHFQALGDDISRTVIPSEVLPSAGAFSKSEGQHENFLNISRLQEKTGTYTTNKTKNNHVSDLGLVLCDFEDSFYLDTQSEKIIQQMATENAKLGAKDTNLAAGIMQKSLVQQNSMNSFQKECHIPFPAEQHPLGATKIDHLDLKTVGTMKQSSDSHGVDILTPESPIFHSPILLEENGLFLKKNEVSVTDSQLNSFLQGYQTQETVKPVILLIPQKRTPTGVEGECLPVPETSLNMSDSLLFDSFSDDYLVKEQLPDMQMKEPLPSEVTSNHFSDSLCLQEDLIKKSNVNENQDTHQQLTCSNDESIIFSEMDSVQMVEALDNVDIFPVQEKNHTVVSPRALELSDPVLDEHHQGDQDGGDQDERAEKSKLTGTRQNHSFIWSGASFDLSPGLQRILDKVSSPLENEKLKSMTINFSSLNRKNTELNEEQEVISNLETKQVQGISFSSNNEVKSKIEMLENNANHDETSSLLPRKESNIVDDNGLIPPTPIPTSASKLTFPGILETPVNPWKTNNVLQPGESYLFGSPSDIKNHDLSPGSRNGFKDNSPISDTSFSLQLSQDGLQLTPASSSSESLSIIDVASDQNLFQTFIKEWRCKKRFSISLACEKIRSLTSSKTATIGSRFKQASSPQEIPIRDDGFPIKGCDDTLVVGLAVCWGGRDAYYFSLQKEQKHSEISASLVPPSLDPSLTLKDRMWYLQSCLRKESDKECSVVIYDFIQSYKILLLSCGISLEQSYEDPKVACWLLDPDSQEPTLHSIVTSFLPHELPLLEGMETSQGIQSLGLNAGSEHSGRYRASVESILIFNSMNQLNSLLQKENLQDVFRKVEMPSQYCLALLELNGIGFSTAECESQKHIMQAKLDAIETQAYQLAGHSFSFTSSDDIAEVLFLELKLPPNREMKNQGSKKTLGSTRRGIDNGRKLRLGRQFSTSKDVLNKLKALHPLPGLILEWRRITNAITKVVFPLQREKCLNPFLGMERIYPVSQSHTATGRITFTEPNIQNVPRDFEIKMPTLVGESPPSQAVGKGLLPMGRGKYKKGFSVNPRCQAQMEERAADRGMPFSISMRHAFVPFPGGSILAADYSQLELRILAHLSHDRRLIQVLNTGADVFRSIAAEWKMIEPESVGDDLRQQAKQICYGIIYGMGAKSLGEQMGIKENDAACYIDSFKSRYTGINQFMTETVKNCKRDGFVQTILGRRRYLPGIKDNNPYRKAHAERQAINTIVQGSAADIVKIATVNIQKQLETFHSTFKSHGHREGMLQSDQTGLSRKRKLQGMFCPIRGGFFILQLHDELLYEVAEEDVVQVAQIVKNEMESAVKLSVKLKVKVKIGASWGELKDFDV
Structure (SMILES),remaining activity
C=CCNC(N)=S,101%
Cc1cn[nH]c1,95%
CCCCCCNC(=O)n1cc(F)c(=O)[nH]c1=O,104%
CCc1oc2ccccc2c1C(=O)c1cc(Br)c(O)c(Br)c1,97% and 90.3%
CC(C)(O/N=C(\C(=O)N[C@@H]1C(=O)N2C(C(=O)[O-])=C(C[n+]3ccccc3)CS[C@H]12)c1csc(N)n1)C(=O)O,93.2%
Brc1c(Br)c(Br)c2n[nH]nc2c1Br,116%

# Series 5 — tested at: 1 µM
# SMILES: CN1CCN(C(=O)c2ccc(NC(=O)Nc3ccc(N(C)c4ccnc(Nc5ccc(CS(C)(=O)=O)cc5)n4)cc3)cc2)CC1
target,remaining activity [%]
"CDK8 (Homo sapiens, UniProt P49336)",85
"DCLK3 (Homo sapiens, UniProt Q9C098)",100
"KDR (Homo sapiens, UniProt P35968)",1.1
"DDR1 (Homo sapiens, UniProt Q08345)",0
"FLT1 (Homo sapiens, UniProt P17948)",0.4
"DDR2 (Homo sapiens, UniProt Q16832)",0

# A few entries again (series 5):
target,remaining activity [%]
"CDK8 (Homo sapiens, UniProt P49336)",85
"DCLK3 (Homo sapiens, UniProt Q9C098)",100
"KDR (Homo sapiens, UniProt P35968)",1.1
"DDR1 (Homo sapiens, UniProt Q08345)",0
"FLT1 (Homo sapiens, UniProt P17948)",0.4
"DDR2 (Homo sapiens, UniProt Q16832)",0
